# Published values from different studies.
# A part holds a random share of what one study measured. Several values in a cell are separate wells, animals, samples, runs or records.
# UniProt O15075, sequence (whole entry, looked up): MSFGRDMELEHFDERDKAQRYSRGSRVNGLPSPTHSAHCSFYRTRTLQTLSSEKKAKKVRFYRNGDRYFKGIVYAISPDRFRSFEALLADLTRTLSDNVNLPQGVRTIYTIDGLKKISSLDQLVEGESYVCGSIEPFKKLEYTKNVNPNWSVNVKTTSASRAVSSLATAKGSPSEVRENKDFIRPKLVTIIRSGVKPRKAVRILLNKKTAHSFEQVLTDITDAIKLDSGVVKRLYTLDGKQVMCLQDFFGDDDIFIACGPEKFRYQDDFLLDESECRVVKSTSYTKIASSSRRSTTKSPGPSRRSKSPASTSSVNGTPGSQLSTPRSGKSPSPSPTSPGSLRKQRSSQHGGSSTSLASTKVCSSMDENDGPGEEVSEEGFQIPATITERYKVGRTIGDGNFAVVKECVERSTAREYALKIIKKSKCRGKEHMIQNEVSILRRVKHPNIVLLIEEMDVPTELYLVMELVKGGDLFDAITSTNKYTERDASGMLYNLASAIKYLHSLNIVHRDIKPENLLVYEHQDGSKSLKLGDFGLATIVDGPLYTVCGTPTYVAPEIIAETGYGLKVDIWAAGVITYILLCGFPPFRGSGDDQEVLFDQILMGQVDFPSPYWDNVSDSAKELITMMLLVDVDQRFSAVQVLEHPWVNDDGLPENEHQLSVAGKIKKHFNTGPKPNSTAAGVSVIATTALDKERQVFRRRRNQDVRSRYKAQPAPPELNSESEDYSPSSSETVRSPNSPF
# UniProt P00519, sequence (whole entry, looked up): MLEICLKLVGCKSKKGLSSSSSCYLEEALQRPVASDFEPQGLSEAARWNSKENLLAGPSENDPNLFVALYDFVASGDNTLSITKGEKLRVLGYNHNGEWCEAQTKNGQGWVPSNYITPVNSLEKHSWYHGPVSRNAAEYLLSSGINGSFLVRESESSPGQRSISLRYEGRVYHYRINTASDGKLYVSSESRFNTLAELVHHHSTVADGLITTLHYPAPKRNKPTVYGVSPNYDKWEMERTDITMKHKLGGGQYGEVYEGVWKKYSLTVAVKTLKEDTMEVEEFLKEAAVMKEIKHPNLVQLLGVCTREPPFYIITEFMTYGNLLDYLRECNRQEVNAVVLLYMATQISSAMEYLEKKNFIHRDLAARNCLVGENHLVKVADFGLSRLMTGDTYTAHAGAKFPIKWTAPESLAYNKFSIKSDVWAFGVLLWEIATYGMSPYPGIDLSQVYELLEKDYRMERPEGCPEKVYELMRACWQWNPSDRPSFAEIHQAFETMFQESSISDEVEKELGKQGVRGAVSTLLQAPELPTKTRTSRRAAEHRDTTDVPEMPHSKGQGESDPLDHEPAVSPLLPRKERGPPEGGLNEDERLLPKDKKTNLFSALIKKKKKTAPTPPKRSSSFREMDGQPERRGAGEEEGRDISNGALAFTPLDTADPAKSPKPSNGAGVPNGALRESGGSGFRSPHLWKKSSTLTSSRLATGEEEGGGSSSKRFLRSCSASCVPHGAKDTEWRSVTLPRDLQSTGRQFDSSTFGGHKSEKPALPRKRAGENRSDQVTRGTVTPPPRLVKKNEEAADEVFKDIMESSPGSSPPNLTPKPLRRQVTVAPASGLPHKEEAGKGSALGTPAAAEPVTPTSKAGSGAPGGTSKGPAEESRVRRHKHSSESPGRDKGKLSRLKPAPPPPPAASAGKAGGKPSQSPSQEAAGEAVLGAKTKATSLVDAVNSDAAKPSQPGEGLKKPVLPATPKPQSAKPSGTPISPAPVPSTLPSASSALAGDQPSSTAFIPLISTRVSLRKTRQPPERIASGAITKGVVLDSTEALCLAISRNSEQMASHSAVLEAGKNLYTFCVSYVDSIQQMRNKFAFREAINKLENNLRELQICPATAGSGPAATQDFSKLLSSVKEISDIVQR
# UniProt P29317, sequence (whole entry, looked up): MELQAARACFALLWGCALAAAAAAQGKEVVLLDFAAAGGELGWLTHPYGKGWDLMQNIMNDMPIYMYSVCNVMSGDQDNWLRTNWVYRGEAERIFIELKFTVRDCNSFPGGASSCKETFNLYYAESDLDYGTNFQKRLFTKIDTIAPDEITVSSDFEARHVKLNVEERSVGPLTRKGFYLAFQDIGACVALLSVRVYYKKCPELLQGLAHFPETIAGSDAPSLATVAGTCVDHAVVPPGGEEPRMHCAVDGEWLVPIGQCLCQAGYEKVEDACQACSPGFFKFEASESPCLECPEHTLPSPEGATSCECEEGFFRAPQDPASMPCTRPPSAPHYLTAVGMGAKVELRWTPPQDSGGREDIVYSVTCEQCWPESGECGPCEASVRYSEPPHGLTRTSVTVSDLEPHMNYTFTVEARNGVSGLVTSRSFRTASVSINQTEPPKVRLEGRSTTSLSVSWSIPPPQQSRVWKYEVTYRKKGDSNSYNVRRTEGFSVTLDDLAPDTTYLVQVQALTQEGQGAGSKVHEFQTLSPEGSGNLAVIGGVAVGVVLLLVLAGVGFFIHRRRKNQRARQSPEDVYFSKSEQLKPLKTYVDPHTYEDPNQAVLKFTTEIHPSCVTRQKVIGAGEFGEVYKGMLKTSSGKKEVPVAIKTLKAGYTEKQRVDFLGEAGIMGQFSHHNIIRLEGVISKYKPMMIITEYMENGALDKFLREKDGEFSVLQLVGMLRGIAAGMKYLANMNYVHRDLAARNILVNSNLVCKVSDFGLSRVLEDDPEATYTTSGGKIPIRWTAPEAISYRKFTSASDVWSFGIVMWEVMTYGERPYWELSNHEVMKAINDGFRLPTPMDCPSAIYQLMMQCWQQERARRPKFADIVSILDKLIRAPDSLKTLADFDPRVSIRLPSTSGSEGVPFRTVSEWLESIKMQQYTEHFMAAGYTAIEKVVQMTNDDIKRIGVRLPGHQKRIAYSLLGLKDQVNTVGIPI
# UniProt Q6P2M8, sequence (whole entry, looked up): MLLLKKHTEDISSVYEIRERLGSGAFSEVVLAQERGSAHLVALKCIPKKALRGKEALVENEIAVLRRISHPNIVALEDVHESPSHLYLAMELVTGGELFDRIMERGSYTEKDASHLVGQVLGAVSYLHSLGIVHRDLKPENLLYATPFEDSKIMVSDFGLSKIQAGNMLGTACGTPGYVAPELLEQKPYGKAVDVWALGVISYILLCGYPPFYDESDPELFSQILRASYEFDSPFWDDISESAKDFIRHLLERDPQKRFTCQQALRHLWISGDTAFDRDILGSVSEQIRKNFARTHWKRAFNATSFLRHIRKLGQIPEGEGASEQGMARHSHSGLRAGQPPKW
# UniProt P11802, sequence (whole entry, looked up): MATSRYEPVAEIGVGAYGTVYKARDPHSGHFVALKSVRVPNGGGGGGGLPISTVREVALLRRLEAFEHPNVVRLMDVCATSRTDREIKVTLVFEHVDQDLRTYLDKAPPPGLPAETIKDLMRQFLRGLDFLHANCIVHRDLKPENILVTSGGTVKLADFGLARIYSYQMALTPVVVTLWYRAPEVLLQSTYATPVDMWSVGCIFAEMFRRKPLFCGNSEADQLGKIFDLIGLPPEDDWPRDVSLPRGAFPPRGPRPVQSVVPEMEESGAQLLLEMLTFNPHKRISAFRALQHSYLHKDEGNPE

# Sample 1
# Cell line: HaCaT
# Tested at: 100 µM
# Time: 18 h
Structure (SMILES),viability
Nc1nc(=O)[nH]cc1F,117%
CC(C)NCC(O)COc1ccc(COCCOC(C)C)cc1 (racemic),94.9%
C[C@]12CC[C@@H]3c4ccc(O)cc4C[C@@H](CCCCCCCCC[S+]([O-])CCCC(F)(F)C(F)(F)F)[C@H]3[C@@H]1CC[C@@H]2O (stereo partly shown),98.6%
Cc1ccccc1C(=O)Nc1ccc(C(=O)N2CCCC(N(C)C)c3ccccc32)cc1 (stereo not shown),65.4%
Cc1c(NC(=O)c2cccnc2)c(=O)n(-c2ccccc2)n1C,107%
CC(=O)Oc1cc(C)c(OC(C)=O)c2ccccc12,27.9%
Cn1c(=O)c2[nH]cnc2n(C)c1=O,102% and 110%
O=C(O)Cc1cc(I)c(Oc2ccc(O)c(I)c2)c(I)c1,63.5%
COc1c2occc2cc2ccc(=O)oc12,82.8%
C=C1c2cccc(O)c2C(=O)C2=C(O)[C@]3(O)C(=O)C(C(N)=O)=C(O)[C@@H](N(C)C)[C@@H]3[C@@H](O)[C@H]12,111%
NS(=O)(=O)c1cc2c(cc1Cl)NCNS2(=O)=O,97%
OCc1ccc(O[C@@H]2O[C@H](CO)[C@@H](O)[C@H](O)[C@H]2O)cc1,111%

# Sample 2
# Structure (SMILES): CCCOc1ccc([C@@H]2[C@@H](C(=O)O)[C@H](c3ccc4c(c3)OCO4)CN2CC(=O)Nc2c(CC)cccc2CC)cc1
# Technique: competition with immobilised ligand
# Tested at: 1 µM
target,assay,remaining binding [%]
"Cyclin-dependent kinase 4, with cyclin D1 (CDK4, Homo sapiens, UniProt P11802)",cell-free assay,100
"Tyrosine-protein kinase ABL1, phosphorylated (ABL1, Homo sapiens, UniProt P00519)",cell-free assay,80
"STK3 (Homo sapiens, UniProt Q13188)",cell-free assay,100
"PNCK (Homo sapiens, UniProt Q6P2M8)",cell-free assay,100
"DCLK1 (Homo sapiens, UniProt O15075)",cell-free assay,80
"EPHB6 (Homo sapiens, UniProt O15197)",cell-free assay,77
"CDK11A (Homo sapiens, UniProt Q9UQ88)",binding,100
"BMX (Homo sapiens, UniProt P51813)",cell-free assay,100
"Receptor-type tyrosine-protein kinase FLT3, autoinhibited (FLT3, Homo sapiens, UniProt P36888)",cell-free assay,71
"FLT3 (Homo sapiens, UniProt P36888, F691L/ITD)",cell-free assay,63
"EPHA2 (Homo sapiens, UniProt P29317)",cell-free assay,100
"TNK1 (Homo sapiens, UniProt Q13470)",cell-free assay,93
"TGFBR2 (Homo sapiens, UniProt P37173)",cell-free assay,96
"TNNI3K (Homo sapiens, UniProt Q59H18)",cell-free assay,84
"EPHB4 (Homo sapiens, UniProt P54760)",cell-free assay,96

# Sample 3
# Target: Serine/threonine-protein kinase 26 (STK26, Homo sapiens, UniProt Q9P289)
# UniProt Q9P289, sequence (whole entry, looked up): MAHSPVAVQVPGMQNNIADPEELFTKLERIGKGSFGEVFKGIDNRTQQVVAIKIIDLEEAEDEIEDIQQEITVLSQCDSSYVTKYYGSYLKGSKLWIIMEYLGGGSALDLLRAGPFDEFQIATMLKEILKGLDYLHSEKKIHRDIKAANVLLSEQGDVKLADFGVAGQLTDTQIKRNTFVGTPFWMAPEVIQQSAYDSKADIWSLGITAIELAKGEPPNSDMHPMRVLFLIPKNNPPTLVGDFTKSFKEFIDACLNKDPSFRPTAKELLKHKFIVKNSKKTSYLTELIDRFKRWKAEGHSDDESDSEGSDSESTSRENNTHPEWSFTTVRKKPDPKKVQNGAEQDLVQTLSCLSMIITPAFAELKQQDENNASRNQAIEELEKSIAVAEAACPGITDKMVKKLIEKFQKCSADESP
# Effect on: enzyme activity
# Action: inhibitor
# Tested at: 0.5 µM
# Relative to: control
SMILES,remaining activity [%]
Nc1nc(Nc2ccc(S(N)(=O)=O)cc2)nn1C(=S)Nc1c(F)cccc1F,4.54
N#CC(c1ccnc(NCCc2cccnc2)n1)c1nc2ccccc2s1 (stereo not shown),104
CC(C)n1cnc2c(Nc3cccc(Cl)c3)nc(NCCO)nc21,87.9
COc1cc2c(N3CCN(C(=O)Nc4ccc(OC(C)C)cc4)CC3)ncnc2cc1OCCCN1CCCCC1,101
c1cc(-c2cnn3cc(-c4ccc(OCCN5CCCCC5)cc4)cnc23)ccn1,87.3
Clc1ccc(Nc2nnc(Cc3ccncc3)c3ccccc23)cc1,118
CC(C)(C)c1nc2c3cc[nH]c(=O)c3c3cc(F)ccc3c2[nH]1,70.9
CCCCc1c(-c2ccc(O)cc2)[nH]c2nccnc12,79.1

# Sample 4
# Host: human
# Matrix: microsomes or S9
# Tested at: 2 µM
# Time: 0.5 h
SMILES,remaining compound [%]
CC(C)CCNC(=O)c1c(OCC2CC2)cc(=O)n2c1CCOCC2,64.5
COC1(c2nc(-c3ccc(Cl)nn3)cs2)CCOCC1,83.3
COc1ccc2c(c1)CCC(N1CCCCC1)C2O (stereo not shown),37.5
Cc1nc(C(=O)NC(C)C(C)(C)C)c2n1CCCC2 (stereo not shown),71.7
CC(C)n1[nH]c(=O)c2c1NC(=O)CC2c1cnn(C)c1 (stereo not shown),41.8
CCOC(=O)c1c2ccccc2n2/c(=C\c3ccccc3C)c3ccccc3c12,18.5
O=S1(=O)N=C(N2CCN(c3ccccc3)CC2)c2ccccc21,85.3
CC(C)(C)C1CCc2c(sc3ncnc(O)c23)C1 (stereo not shown),> 100
O=C(CCCSc1ccc(NC(=O)C2CC2)nn1)Nc1cnc2ccccc2c1,> 99
Cc1cnc(C(=O)Nc2cc(Cl)c(Cl)c(Cl)c2)cn1,18.2
CCCN1CCc2[nH]cnc2C12CCN(C(=O)[C@@H]1C[C@@H](O)CN1)CC2,80.2

# Repeated from above (sample 1):
Structure (SMILES),viability
Cc1c(NC(=O)c2cccnc2)c(=O)n(-c2ccccc2)n1C,107%
Cc1ccccc1C(=O)Nc1ccc(C(=O)N2CCCC(N(C)C)c3ccccc32)cc1 (stereo not shown),65.4%
C[C@]12CC[C@@H]3c4ccc(O)cc4C[C@@H](CCCCCCCCC[S+]([O-])CCCC(F)(F)C(F)(F)F)[C@H]3[C@@H]1CC[C@@H]2O (stereo partly shown),98.6%
CC(=O)Oc1cc(C)c(OC(C)=O)c2ccccc12,27.9%
